Published values of several laboratories.
Every numbered part comes from another study and shows a few of its results, in no order.

Sample 1 — method: EMSA with sequencing; molecule type: double-stranded DNA, one strand shown; matrix: in vitro; tested at: 10 and 20 nM; reference: negative control set to 0; direction: higher = stronger binding
Target: Hepatocyte nuclear factor 3-alpha (Foxa1, Mus musculus, UniProt P35582, residues 1-468, full length assumed)
UniProt P35582, sequence (whole entry, looked up): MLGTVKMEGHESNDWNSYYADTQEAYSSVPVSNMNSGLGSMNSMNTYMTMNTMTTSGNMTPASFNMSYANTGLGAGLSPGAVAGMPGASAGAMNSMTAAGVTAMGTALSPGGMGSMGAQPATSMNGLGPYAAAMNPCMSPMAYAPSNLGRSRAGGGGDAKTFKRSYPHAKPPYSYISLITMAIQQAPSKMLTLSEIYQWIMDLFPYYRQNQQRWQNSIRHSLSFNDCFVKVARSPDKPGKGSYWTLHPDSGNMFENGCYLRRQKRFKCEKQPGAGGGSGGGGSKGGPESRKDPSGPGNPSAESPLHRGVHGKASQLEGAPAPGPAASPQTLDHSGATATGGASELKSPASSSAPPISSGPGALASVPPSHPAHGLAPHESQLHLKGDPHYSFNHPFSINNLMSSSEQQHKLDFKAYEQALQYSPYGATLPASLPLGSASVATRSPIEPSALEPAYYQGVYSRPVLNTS
Notes: whole designed probe, mean of two concentrations, ends assumed
Shared flanks, not repeated: GTGAGCGGTGCCCATTGATGGGGAAC … TTTCACTGGGATCGTGGGGAC
Sequence | normalised bound fraction [ratio]
ATTGTACCTAGCTTCAATACAGTTATCTAAACCAGGAAAATGGTTTTCTGACTGTATTAGTCGCCTAGGGCTGCTTTAATAGGTCTTGCAAAAGTACACATATACTTGTCTTAACACTCAGCAATTCCACCGTTAGTATTTACCCCAAAATGATAAGCAATTCTGCAAATATGCTTCAGTTTACATATTTAGA | 0.406
GTAAGGACCTCAATTTATTTTTTTCCCTAAGAGCTAATGAATTTTCCCAGTATCACCCACTGAGCCGTCCTCCCCTCTTTGTGATGCCACGTTTGTTTACCTTGTCCAGACTCATATGTTCTGCAACATTCAGCTATTTGTCAATTCTTATGCCAGTACTTCCACTGTTACCATCATCAATTTAAAGATTACT | 0.36
ACCCCTGAACTTAAATAAAAGTTAACAAACCCCACAAATCCCTACATGAAAAGACAGGGCTAATTAGCTAATTGGTAGTAATACTATTAGCAGAGATTACTGAGTGCTTGTATCAGCCAGACACTGGTCTCAGAGCTTGAGATGCTTTAGCTCATTAAGTTAATTGGCCCATGAGTTGGGTACCATTACTGCC | 0.0719
ATCTTCCCCCTCTTCCTTGCCCCACCAGCTCACCTTCCCGGGTTATTTGCAGATAGGAAAATAAATAAAGCCGGCATTCGTTCCCTTATCACTGGCGCAAACTGCTGTTTGCTCTGGATGAATCATGGTCCTTTGGCGACGCCAGGCTCCGGGAGAGCAAAGCACCGTGTCAGGGCCATGATCCGGGGTGGCC | 0.366
TGGAATTCAAATTCCAGTGGCTTAACTGCAAGAGTCCCTGCTTCCATCACTCTGTTAGGCTGTACTCATGGCCTTGAAATATCCCTTAAGGTTATTTACTTTCTTATGCTCTGGTTCTTTGCTAAACAAACAAGCTTTCAATTATTAATTTGGCTTCCTACGTGTTCTGATCCTGTAAAGGAATTATTCCATT | 0.506

Sample 2 — method: RNA Bind-n-Seq; molecule type: RNA; matrix: in vitro; tested at: 200 nM; notes: whole 134-nt RNA, ends assumed; with: 150 mM KCl; reference: input library; direction: higher = stronger binding
Target: Ras GTPase-activating protein-binding protein 1, full length (G3BP1, Homo sapiens, UniProt Q13283)
UniProt Q13283, sequence (whole entry, looked up): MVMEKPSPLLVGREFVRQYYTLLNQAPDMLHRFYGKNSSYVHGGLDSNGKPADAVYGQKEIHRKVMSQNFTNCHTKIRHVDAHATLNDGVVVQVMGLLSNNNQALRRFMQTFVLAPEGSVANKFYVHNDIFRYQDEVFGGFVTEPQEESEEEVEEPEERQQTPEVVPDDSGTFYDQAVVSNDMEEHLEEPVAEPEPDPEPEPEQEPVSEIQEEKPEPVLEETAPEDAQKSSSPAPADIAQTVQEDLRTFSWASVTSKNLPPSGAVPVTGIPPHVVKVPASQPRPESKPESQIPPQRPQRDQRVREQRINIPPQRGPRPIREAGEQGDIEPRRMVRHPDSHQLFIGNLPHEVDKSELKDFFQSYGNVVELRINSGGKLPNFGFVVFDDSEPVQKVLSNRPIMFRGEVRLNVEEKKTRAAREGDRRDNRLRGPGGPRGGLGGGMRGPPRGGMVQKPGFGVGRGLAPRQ
Shared flanks, not repeated: GGGAGUUCUACAGUCCGACGAUC … UGGAAUUCUCGGGUGUCAAGG
Sequence | log2 enrichment
UCCUUUUUUUUUUUCUUUGAAUGUAUUUAUUUCUUGUAGUCUACUGGUGCUGUUGUGACGGAGAGCCAGACGUACAAAAACCGAGCUGGU | 0.465
UCAAGUCCUGUGCUACACAUCGUAUGUACCGAAUCGGGGCCGGGGCCGGGCCGGAAAGUAUUAUGUUACGCCGUUCGGAUCUGCACUUCC | -0.46
UCAUGGCUAUCAUUAGCCACAGGUACUGCUGAUUAUAAGGCCAGUAAAAUUUUAGUACCUGGAGGUUUGACUCUAAUUUUUGCACUGAUG | -1.73
UAACUUUAGAGGAGGAUCUGAUGGAUAUGGCAGUGGACGUGGAUUUGGGGAUGGCCAUAAUGGGUAUGGAGGAGGACCUGGAGGUGGCAA | 0.298
CAAGUCCUGUGCUACACAUCGUAUGUACCGAAUCGGGGAGGGGAAAGGGGUGGGGAAAGUAUUAUGUUACGCCGUUCGGAUCUGCACUUC | 1.12
CUGUGCUACACAUCGUAUGUACCGAAUCGGAAAAAAAGGGAAAAAAAGGGGAAAAAAAGGGAAAGUAUUAUGUUACGCCGUUCGGAUCUG | -1.08
CCUGUGCUACACAUCGUAUGUACCGAAUCGGGUUUUUUUGGGUUUUUUUGGGUUUUUGGGAAAGUAUUAUGUUACGCCGUUCGGAUCUGC | -0.846
UGGCCCUGGUGGCAUGCGGGGAGGAAGGGGUGGCCUCAUGGAUCGUGGUGGUCCCGGUGGAAUGUUCAGAGGUGGCCGUGGUGGAGACAG | 0.874
GUCCUGUGCUACACAUCGUAUGUACCGAAUCGGGAGGGUUUUUUUGGGAAAAAAAGGGAAAGUAUUAUGUUACGCCGUUCGGAUCUGCAC | -0.418

Sample 3 — method: protein binding microarray; molecule type: double-stranded DNA, one strand shown; matrix: in vitro; tested at: not given; reference: not given; direction: higher = stronger binding
Target: Histone acetyltransferase KAT6A, winged helix 1, GST fusion (KAT6A, Homo sapiens, UniProt Q92794, residues 1-85)
Notes: 8-mer, flanks averaged, mean of 2 arrays, mostly near background
Construct (chain): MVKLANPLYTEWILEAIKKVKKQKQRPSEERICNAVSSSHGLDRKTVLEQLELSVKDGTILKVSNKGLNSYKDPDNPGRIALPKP
Sequence | E-score
CTCGGTGC | -0.0326
AAGCAGAG | -0.373
ATGTCCGA | 0.0536
ATTTGAGC | -0.119
ACGCTTAG | 0.15
GCGCTTCC | 0.403
AAGCTATC | -0.161
GGTTGGAA | -0.0914
ATTTTTCA | -0.12
ACGCCAGA | 0.0173
CCCCGTCA | 0.193
AGAAAGGC | 0.0986
AGGCCCCG | 0.0886
AGTAACTC | -0.126
TACAGCAA | -0.0692
AACGCCCG | 0.312
TCCTTCAA | -0.327
ACCGCCGG | 0.472
GCCTTTTA | -0.0192
AGGCACGA | -0.16
CAGGCCTC | 0.0362
GCTGGGCA | -0.224
AATGGTAG | -0.185
ACCTGTGA | -0.194
CGCTGAGC | 0.265

Sample 4 — method: universal PBM; molecule type: double-stranded DNA, one strand shown; matrix: in vitro; tested at: 600 nM; direction: higher = stronger binding
Target: Sal-like protein 4, full length isoform A (SALL4, Homo sapiens, UniProt Q9UJQ4, residues 1-1053)
UniProt Q9UJQ4, sequence (whole entry, looked up): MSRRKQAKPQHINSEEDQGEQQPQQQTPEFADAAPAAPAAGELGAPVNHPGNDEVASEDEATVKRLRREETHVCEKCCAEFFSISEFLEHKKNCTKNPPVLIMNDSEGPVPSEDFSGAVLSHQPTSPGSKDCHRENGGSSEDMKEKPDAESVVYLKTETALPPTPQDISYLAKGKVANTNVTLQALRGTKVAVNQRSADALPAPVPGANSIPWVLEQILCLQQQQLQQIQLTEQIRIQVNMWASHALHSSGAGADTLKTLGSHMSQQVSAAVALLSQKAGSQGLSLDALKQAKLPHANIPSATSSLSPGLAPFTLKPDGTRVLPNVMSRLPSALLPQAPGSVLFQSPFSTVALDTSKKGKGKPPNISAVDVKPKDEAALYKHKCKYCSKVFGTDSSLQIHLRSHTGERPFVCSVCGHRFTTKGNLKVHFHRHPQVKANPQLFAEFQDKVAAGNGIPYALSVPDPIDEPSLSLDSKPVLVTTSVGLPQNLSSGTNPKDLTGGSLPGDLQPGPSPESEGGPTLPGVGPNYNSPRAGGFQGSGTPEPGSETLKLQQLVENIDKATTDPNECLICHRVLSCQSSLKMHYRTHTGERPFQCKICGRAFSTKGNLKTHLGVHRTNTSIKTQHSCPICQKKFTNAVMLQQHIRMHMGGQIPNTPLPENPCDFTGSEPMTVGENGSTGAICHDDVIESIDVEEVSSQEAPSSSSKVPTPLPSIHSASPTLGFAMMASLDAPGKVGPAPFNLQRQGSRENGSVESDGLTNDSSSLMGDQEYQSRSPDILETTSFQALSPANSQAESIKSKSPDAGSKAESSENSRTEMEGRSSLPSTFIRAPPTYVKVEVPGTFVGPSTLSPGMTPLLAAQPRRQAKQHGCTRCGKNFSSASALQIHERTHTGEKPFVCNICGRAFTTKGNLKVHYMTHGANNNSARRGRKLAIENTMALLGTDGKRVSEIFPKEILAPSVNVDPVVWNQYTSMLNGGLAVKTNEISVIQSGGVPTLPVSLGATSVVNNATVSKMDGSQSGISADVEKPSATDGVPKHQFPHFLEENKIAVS
Notes: 8-mer, flanks averaged, mean of replicates
Sequence | E-score
GCTCAGCA | -0.0478
AGGGTCTA | -0.159
GTGGGTAA | -0.127
CAAATAGC | 0.216
GACCGTCA | -0.1
AGCCTAAG | -0.169
AGAGGTCA | -0.248
AACGTAGA | 0.142
CGCAGTAA | 0.11
AAAGGCTA | 0.0763
TGACCACA | 0.0314
ACCACCAT | -0.116
CCCTGCGC | -0.21
AGAGTTGC | -0.0846
AAACGCTC | -0.0431
GGGTGCCA | -0.0902
ACCACCAG | -0.165

Sample 5 — target: UBE2G1 UBC core domain (UniProt P62253); method: yeast two-hybrid; matrix: yeast; notes: mostly zero background; reference: not given; direction: higher = stronger interaction
B1: TRIM41 RING domain (UniProt Q8WV44); chain PVQTLQEEAVCAICLDYFTDPVSIGCGHNFCRVCVTQLWGGEDEEDRDELDREEEEEDGEEE
B2: ZNRF4 RING domain (UniProt Q8WWF5); chain VRTFTWHNDLCAICLDEYEEGDQLKILPCSHTYHCKCIDPWFSQAPRRSCPVCKQSVAATEDSF
B3: ZMYND11 RING domain (UniProt Q15326); chain DEIDWETENHDWYCFECHLPGEVLICDLCFRVYHSKCLSDEFRLRDSSSPWQCPVCRSIKKKNTNKQEM
B4: RNF6 RING domain (UniProt Q9Y252); chain NSIDSELGKICSVCISDYVTGNKLRQLPCMHEFHIHCIDRWLSENCTCPICRQPVLGSNIAN
B5: ARIH2 RING domain (UniProt O95376); chain HVPTSHPPHHCAVCMQFVRKENLLSLACQHQFCRSCWEQHCSVLVKDGVGVGVSCMAQDCPLRTPEDFVF
B6: TRIM11 RING domain (UniProt Q96F44); chain LSTNLQEEATCAICLDYFTDPVMTDCGHNFCRECIRRCWGQPEGPYACPECRELSPQRNLRP
B7: CNOT4 RING domain (UniProt O95628); chain MSRSPDAKEDPVECPLCMEPLEIDDINFFPCTCGYQICRFCWHRIRTDENGLCPACRKPYPED
Target sequence (chain): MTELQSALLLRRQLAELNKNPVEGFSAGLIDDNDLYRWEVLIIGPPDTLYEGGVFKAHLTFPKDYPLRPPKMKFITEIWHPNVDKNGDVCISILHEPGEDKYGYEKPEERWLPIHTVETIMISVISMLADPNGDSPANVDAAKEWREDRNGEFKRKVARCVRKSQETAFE
Molecule | lacZ reporter activity
ASPKIFQKTKCSICNSALELPSVHFLCGHSFHQHCFESYSESDADCPTCLPENRKVMDMI (VPS11 RING domain (UniProt Q9H270)) | 0
B1 (TRIM41 RING domain) | 0
B2 (ZNRF4 RING domain) | 0
B3 (ZMYND11 RING domain) | 0
EIKEYKARLTCPCCNTRKKDAVLTKCFHVFCFECVRGRYEARQRKCPKCNAAFGAHDFHR (RNF40 RING domain (UniProt O75150)) | 0
B4 (RNF6 RING domain) | 0
ASEEEFQFLRCQQCQAEAKCPKLLPCLHTLCSGCLEASGMQCPICQAPWPLGADTP (PML RING domain (UniProt P29590)) | 0
B5 (ARIH2 RING domain) | 0
B6 (TRIM11 RING domain) | 0
B7 (CNOT4 RING domain) | 0

A few entries again (sample 4):
Sequence | E-score
AGAGGTCA | -0.248
AACGTAGA | 0.142
CGCAGTAA | 0.11
AAAGGCTA | 0.0763
TGACCACA | 0.0314
ACCACCAT | -0.116
CCCTGCGC | -0.21
AGAGTTGC | -0.0846
